Assay results of several laboratories.
Every numbered part comes from another study and shows a few of its results, in no order. Several values in a cell are separate wells, animals, samples, runs or records.

Study 1 — organism: Arabidopsis thaliana; strain: Col-0; concentration: 50 µg/mL; notes: seed germination, single repetition
Compound	hypocotyl length
O=C(O)C1(O)Oc2cc(F)ccc2N(Cc2ccccc2)C1=O (stereo not shown)	0.08 cm and 0.09 cm and 0.1 cm and 0.11 cm
CCN1C(=O)C(O)(C(=O)O)Oc2cc(F)ccc21 (stereo not shown)	1.65 cm and 1.67 cm and 1.68 cm and 1.59 cm and 1.6 cm
O=C(O)C1Oc2cc(F)ccc2N(Cc2ccccc2)C1=O (stereo not shown)	1.92 cm and 1.84 cm and 1.89 cm and 1.86 cm and 1.79 cm
COc1ccc2c(c1)OC(O)(C(=O)O)C(=O)N2Cc1ccccc1 (stereo not shown)	1.31 cm and 1.33 cm and 1.3 cm
O=C(O)C1(O)Oc2cc(Cl)ccc2N(Cc2ccccc2)C1=O (stereo not shown)	1.32 cm and 1.33 cm and 1.31 cm

Study 2 — cell line: U-87 MG; concentration: concentration not given; reference: DMSO
Compound: CCN1/C(=C/C=C2\CCCC(/C=C/C3=[N+](CC)c4ccccc4C3(C)C)=C2NCCCCCCCCN2CCC(Nc3nc4ccccc4n3Cc3ccc(F)cc3)CC2)C(C)(C)c2ccccc21
test	log2 fold change
item: BMP2 mRNA	2.43
item: SETMAR mRNA	-0.82
item: ZXDB mRNA	1.25
item: PCDHB5 mRNA	-1.31
item: TUBB3 mRNA	-2.42
item: TMEM158 mRNA	-1.13
item: FOSL2 mRNA	-0.941
item: SMC4 mRNA	-1.43
item: RAB43 mRNA	1.81
item: KCNJ15 mRNA	-1.67
item: PRR16 mRNA	-1.21
item: MED10 mRNA	0.922
item: RBM43 mRNA	-1.02
item: ABCB6 mRNA	-0.896
item: IL22RA1 mRNA	-1.98
item: SUN2 mRNA	-1.68

Study 3 — cell line: HCC1569; observed: CDK1 Thr14 phosphorylation; method: in-cell western; concentration: 111.11 nM; direction: lower = stronger inhibition
Structure (SMILES)	phospho-CDK1 (Thr14) level
Cc1ccc(O)c(C)c1-c1cnc2[nH]c(-c3cnc(N4CCC5(CC4)CC(N4CCN(c6ccc(NC7CCC(=O)NC7=O)cc6F)CC4)CO5)nc3)cc2c1C#N (stereo not shown)	92.9 a.u. and 89.7 a.u.
Cc1ccc(O)c(C)c1-c1cnc2[nH]c(-c3cnc(N4CCC(CN5CCN(c6ccc(NC7CCC(=O)NC7=O)cc6F)CC5)CC4)nc3)cc2c1C#N (stereo not shown)	76.7 a.u. and 65.4 a.u.
Cc1ccc(O)c(C)c1-c1cnc2[nH]c(-c3cnc(N4CCC(CN5CCN(c6cc7c(cc6F)n(C6CCC(=O)NC6=O)c(=O)n7C)CC5)CC4)nc3)cc2c1C#N (stereo not shown)	45.5 a.u. and 39.6 a.u.
Cc1ccc(O)c(C)c1-c1cnc2[nH]c(-c3cnc(N4CCC(CN5CCC(c6ccc(NC7CCC(=O)NC7=O)cc6F)CC5)CC4)nc3)cc2c1C#N (stereo not shown)	62.7 a.u. and 57.9 a.u.
Cc1ccc(O)c(C)c1-c1cnc2[nH]c(-c3cnc(N4CCC(CN5CCN(c6cc7c(cc6F)c(N6CCC(=O)NC6=O)nn7C)CC5)CC4)nc3)cc2c1C#N	53.1 a.u. and 60.4 a.u.

Study 4 — cell line: MDA-MB-231; observed: cell viability; method: CellCounting-Lite; concentration: 0.3048 nM; temperature: 37 °C; direction: higher = more viable cells
Compound	luminescence signal
CCn1cnc2c(NCc3nc4cc(F)c(F)cc4[nH]3)nc(N3CCn4ncnc4C3)nc21	512000 a.u. and 453000 a.u. and 477000 a.u.
CC(=O)N1CCN(c2nc(NCc3nc4cc(Cl)c(Cl)cc4[nH]3)c3ncn(C)c3n2)CC1	507000 a.u. and 412000 a.u. and 421000 a.u.
CCn1cnc2c(NCc3nc4cc(Cl)c(Cl)cc4[nH]3)nc(N3CCN(C(=O)[C@H](C)NC(C)=O)CC3)nc21	440000 a.u. and 405000 a.u. and 438000 a.u.
CC(=O)N1CCN(c2nc(NCc3nc4cc(Cl)c(Cl)cc4[nH]3)c3ncn(C(C)C)c3n2)CC1	489000 a.u. and 497000 a.u. and 490000 a.u.
CCn1cnc2c(NCc3nc4cc(Cl)c(Cl)cc4[nH]3)nc(N3CCn4ncnc4C3)nc21	455000 a.u. and 439000 a.u. and 529000 a.u.
CCn1cnc2c(NCc3nc4cc(Cl)c(Cl)cc4[nH]3)nc(N3CCN(S(C)(=O)=O)CC3)nc21	446000 a.u. and 447000 a.u. and 459000 a.u.
CCn1cnc2c(NCc3nc4cc(Cl)c(Cl)cc4[nH]3)nc(N3CCN(Cc4ccncc4)CC3)nc21	457000 a.u. and 431000 a.u. and 408000 a.u.
CCn1cnc2c(NCc3nc4cc(Cl)c(Cl)cc4[nH]3)nc(N3CCN(c4ccccn4)CC3)nc21	567000 a.u. and 561000 a.u. and 611000 a.u.
CCn1cnc2c(NCc3nc4ccc(F)c(F)c4[nH]3)nc(N3CCn4ncnc4C3)nc21	524000 a.u. and 456000 a.u. and 509000 a.u.
Cn1cc(-n2cnc3c(NCc4nc5cc(Cl)c(Cl)cc5[nH]4)nc(N4CCNCC4)nc32)cn1	447000 a.u. and 486000 a.u. and 479000 a.u.
CCn1cnc2c(NCc3nc4cc(Cl)c(Cl)cc4[nH]3)nc(N3CCN(C(=O)CNC(C)=O)CC3)nc21	491000 a.u. and 485000 a.u. and 461000 a.u.

For quick reference, copied from above (study 2):
test	log2 fold change
item: BMP2 mRNA	2.43
item: SETMAR mRNA	-0.82
item: ZXDB mRNA	1.25
item: PCDHB5 mRNA	-1.31
